Experimental data of several laboratories.
Compare with care: the assays were run in different laboratories. ± marks the error that the study gave.

N=C(N)NCCC[C@H](NC(=O)[C@H](CCCCN)NC(=O)[C@H](CCC(N)=O)NC(=O)CCOCCOCCOCCNC(=O)CN1CCN(CC(=O)O)CCN(CC(=O)O)CCN(CC(=O)O)CC1)C(=O)N[C@@H](CCCCN)C(=O)N[C@@H](CCCNC(=N)N)C(=O)N[C@@H](CCCCN)C(=O)N[C@@H](CCCCN)C(=O)N[C@@H](CO)C(=O)N[C@@H](CCCNC(=N)N)C(=O)N[C@@H](Cc1ccc(O)cc1)C(=O)N[C@@H](CCCCN)C(=O)N[C@@H](CO)C(=O)O [copper-64 labelled] — tissue uptake (male C57BL/6 mice, B16-F10 tumour, small intestine; intravenous, 60 min): 1.83 ± 0.39 %ID/g
N=C(N)NCCC[C@@H]1NC(=O)[C@H](CCCCNC(=O)CC[C@H](NC(=O)CCOCCOCCOCCOCCNC(=O)CN2CCN(CC(=O)O)CCN(CC(=O)O)CCN(CC(=O)O)CC2)C(=O)NCCCC[C@@H]2NC(=O)[C@@H](Cc3ccccc3)NC(=O)[C@H](CC(=O)O)NC(=O)CNC(=O)[C@H](CCCNC(=N)N)NC2=O)NC(=O)[C@@H](Cc2ccccc2)NC(=O)[C@H](CC(=O)O)NC(=O)CNC1=O [indium-111 labelled] — tissue uptake (female athymic nude mice, brain; intravenous, 3 µCi, 4 h, U-87 MG glioma xenograft): 0.09 ± 0.05 %ID/g
CSCC[C@H](NC(=O)[C@H](CC(C)C)NC(=O)[C@H](Cc1c[nH]cn1)NC(=O)CNC(=O)[C@@H](NC(=O)[C@H](C)NC(=O)[C@H](Cc1c[nH]c2ccccc12)NC(=O)[C@H](CCC(N)=O)NC(=O)CNC(=O)[C@H](CO)NC(=O)CNC(=O)CCCCCCCNC(=O)CCC(=O)Nc1ccc(CNC23CNCCNCC(N)(CNCCNC2)CNCCNC3)cc1)C(C)C)C(N)=O [copper-64 labelled] — tissue uptake (female SCID mice, PC-3 xenograft, pancreas; intravenous, 0.6 MBq, 4 h): 29.5 ± 1.16 %ID/g
N=C(N)NCCC[C@@H]1NC(=O)[C@H](CCCCNC(=O)CCOCCOCCOCCOCCNC(=O)CN2CCN(CC(=O)O)CCN(CC(=O)O)CCN(CC(=O)O)CC2)NC(=O)[C@@H](Cc2ccccc2)NC(=O)[C@H](CC(=O)O)NC(=O)CNC1=O [indium-111 labelled] — tissue uptake (athymic nude mice, female, U-87 MG glioma xenograft, U-87 MG tumour; intravenous, 3 µCi, 1 h): 2.54 ± 0.37 %ID/g
N=C(N)NCCC[C@@H]1NC(=O)[C@H](CCCCNC(=O)CNC(=O)CNC(=O)CNC(=O)CC[C@H](NC(=O)CNC(=O)CNC(=O)CNC(=O)[C@H](CCCCNC(=O)c2ccc(NN)nc2)NC(=O)c2ccc(NN)nc2)C(=O)NCC(=O)NCC(=O)NCC(=O)NCCCC[C@@H]2NC(=O)[C@@H](Cc3ccccc3)NC(=O)[C@H](CC(=O)O)NC(=O)CNC(=O)[C@H](CCCNC(=N)N)NC2=O)NC(=O)[C@@H](Cc2ccccc2)NC(=O)[C@H](CC(=O)O)NC(=O)CNC1=O [technetium-99m labelled] — tissue ratio (female athymic nude mice; intravenous, 1 h, U-87 MG glioma xenograft; relative to: tumour over lung): 2.52 ± 0.18
CC(C)C[C@H](NC(=O)[C@H](Cc1ccc(O)cc1)NC(=O)[C@@H](CCCNC(=N)N)NC(=O)[C@@H](CO)NC(=O)[C@H](Cc1ccccc1)NC(=O)[C@H](CC1CCCCC1)NC(=O)[C@H](CC(=O)O)NC(=O)CCC(C(=O)O)N1CCCN2CCN(CCCN(CC(=O)O)CC2)CC1)C(=O)N[C@@H](Cc1c[nH]c2ccccc12)C(=O)N[C@@H](CO)C(=O)O (stereo partly shown) [copper-64 labelled] — tissue uptake (female NMRI nude mice, muscle; 1 h p.i.): 0.5 ± 0.2 %ID/g
N=C(N)NCCC[C@@H]1NC(=O)[C@H](CCCCNC(=O)CC[C@H](NC(=O)[C@H](CCCCNC(=O)c2ccc(NN)nc2)NC(=O)c2ccc(NN)nc2)C(=O)NCCCC[C@@H]2NC(=O)[C@@H](Cc3ccccc3)NC(=O)[C@H](CC(=O)O)NC(=O)CNC(=O)[C@H](CCCNC(=N)N)NC2=O)NC(=O)[C@@H](Cc2ccccc2)NC(=O)[C@H](CC(=O)O)NC(=O)CNC1=O [technetium-99m labelled] — tissue uptake (female athymic nude mice, liver; intravenous, 0.1 MBq, 1 h, U-87 MG glioma xenograft): 1.55 ± 0.27 %ID/g
N=C(N)NCCC[C@@H]1NC(=O)[C@H](CCCCNC(=O)CNC(=O)CNC(=O)CNC(=O)CC[C@H](NC(=O)CCOCCOCCOCCOCCNC(=O)CC[C@H](NC(=O)CN2CCN(CC(=O)O)CCN(CC(=O)O)CCN(CC(=O)O)CC2)C(=O)NCCOCCOCCOCCOCCC(=O)N[C@@H](CCC(=O)NCC(=O)NCC(=O)NCC(=O)NCCCC[C@@H]2NC(=O)[C@@H](Cc3ccccc3)NC(=O)[C@H](CC(=O)O)NC(=O)CNC(=O)[C@H](CCCNC(=N)N)NC2=O)C(=O)NCC(=O)NCC(=O)NCC(=O)NCCCC[C@@H]2NC(=O)[C@@H](Cc3ccccc3)NC(=O)[C@H](CC(=O)O)NC(=O)CNC(=O)[C@H](CCCNC(=N)N)NC2=O)C(=O)NCC(=O)NCC(=O)NCC(=O)NCCCC[C@@H]2NC(=O)[C@@H](Cc3ccccc3)NC(=O)[C@H](CC(=O)O)NC(=O)CNC(=O)[C@H](CCCNC(=N)N)NC2=O)NC(=O)[C@@H](Cc2ccccc2)NC(=O)[C@H](CC(=O)O)NC(=O)CNC1=O [indium-111 labelled] — tissue uptake (female athymic nude mice, kidney; intravenous, 3 µCi, 24 h, U-87 MG glioma xenograft): 1.98 ± 0.31 %ID/g
N=C(N)NCCC[C@@H]1NC(=O)[C@H](CCCCNC(=O)CCOCCOCCOCCOCCNC(=O)CC[C@H](NC(=O)CCOCCOCCOCCOCCNC(=O)[C@H](CCCCNC(=O)c2ccc(NN)nc2)NC(=O)c2ccc(NN)nc2)C(=O)NCCOCCOCCOCCOCCC(=O)NCCCC[C@@H]2NC(=O)[C@@H](Cc3ccccc3)NC(=O)[C@H](CC(=O)O)NC(=O)CNC(=O)[C@H](CCCNC(=N)N)NC2=O)NC(=O)[C@@H](Cc2ccccc2)NC(=O)[C@H](CC(=O)O)NC(=O)CNC1=O [technetium-99m labelled] — tissue ratio (female athymic nude mice; intravenous, 1 h, U-87 MG glioma xenograft; relative to: tumour over lung): 3.3 ± 0.14
CSCC[C@H](NC(=O)[C@H](CC(C)C)NC(=O)[C@H](Cc1c[nH]cn1)NC(=O)CNC(=O)[C@@H](NC(=O)[C@H](C)NC(=O)[C@H](Cc1c[nH]c2ccccc12)NC(=O)[C@H](CCC(N)=O)NC(=O)CCCCCCCNC(=O)CCC(=O)Nc1ccc(CNC23CNCCNCC(N)(CNCCNC2)CNCCNC3)cc1)C(C)C)C(N)=O [copper-64 labelled] — tissue uptake (female SCID mice, PC-3 xenograft, pancreas; intravenous, 0.6 MBq, 4 h): 48.4 ± 5.25 %ID/g

For quick reference, copied from above:
N=C(N)NCCC[C@@H]1NC(=O)[C@H](CCCCNC(=O)CCOCCOCCOCCOCCNC(=O)CN2CCN(CC(=O)O)CCN(CC(=O)O)CCN(CC(=O)O)CC2)NC(=O)[C@@H](Cc2ccccc2)NC(=O)[C@H](CC(=O)O)NC(=O)CNC1=O [indium-111 labelled] — tissue uptake (athymic nude mice, female, U-87 MG glioma xenograft, U-87 MG tumour; intravenous, 3 µCi, 1 h): 2.54 ± 0.37 %ID/g
